# Measured values of several laboratories.
# Each line is one published result; not all experiments were run side by side. pKd: −log10 of the molar value.
# Sequence of UniProt Q53GS9 (whole entry, looked up): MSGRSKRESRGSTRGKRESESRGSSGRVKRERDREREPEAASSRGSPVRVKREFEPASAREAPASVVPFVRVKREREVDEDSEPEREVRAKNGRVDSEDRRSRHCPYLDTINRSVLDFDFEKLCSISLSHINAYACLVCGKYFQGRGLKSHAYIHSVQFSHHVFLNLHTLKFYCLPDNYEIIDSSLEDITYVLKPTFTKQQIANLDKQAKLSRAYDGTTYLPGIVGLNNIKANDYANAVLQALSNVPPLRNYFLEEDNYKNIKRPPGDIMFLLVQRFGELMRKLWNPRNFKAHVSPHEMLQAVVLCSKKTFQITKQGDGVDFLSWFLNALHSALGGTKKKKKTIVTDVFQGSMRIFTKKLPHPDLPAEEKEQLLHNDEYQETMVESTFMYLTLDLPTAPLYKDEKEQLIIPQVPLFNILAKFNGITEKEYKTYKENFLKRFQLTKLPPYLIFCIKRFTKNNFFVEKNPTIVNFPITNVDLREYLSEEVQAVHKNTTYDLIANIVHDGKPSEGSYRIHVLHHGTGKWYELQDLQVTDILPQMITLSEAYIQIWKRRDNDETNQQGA
# Sequence of UniProt Q70CQ1 (whole entry, looked up): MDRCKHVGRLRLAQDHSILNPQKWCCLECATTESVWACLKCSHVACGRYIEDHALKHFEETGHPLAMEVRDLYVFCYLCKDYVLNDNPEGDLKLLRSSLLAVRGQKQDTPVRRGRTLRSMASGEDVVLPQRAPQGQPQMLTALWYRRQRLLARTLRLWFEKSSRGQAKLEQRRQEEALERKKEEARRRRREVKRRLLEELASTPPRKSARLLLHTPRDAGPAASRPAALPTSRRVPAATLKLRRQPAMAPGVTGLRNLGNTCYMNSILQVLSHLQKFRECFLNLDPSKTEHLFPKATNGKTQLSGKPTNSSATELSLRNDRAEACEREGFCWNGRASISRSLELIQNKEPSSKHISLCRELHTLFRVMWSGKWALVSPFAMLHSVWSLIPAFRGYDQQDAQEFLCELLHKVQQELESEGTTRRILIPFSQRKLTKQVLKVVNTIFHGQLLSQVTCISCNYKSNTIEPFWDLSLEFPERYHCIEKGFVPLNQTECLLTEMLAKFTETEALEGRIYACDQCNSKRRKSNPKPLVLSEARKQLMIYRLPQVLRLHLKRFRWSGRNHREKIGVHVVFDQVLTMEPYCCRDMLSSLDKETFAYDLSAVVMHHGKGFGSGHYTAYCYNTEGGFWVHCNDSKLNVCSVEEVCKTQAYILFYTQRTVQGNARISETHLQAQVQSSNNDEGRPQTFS
Compound,tested on,test,system,setting,scale,endpoint,result
Nc1nc2c(ncn2[C@@H]2O[C@H](COP(=O)(O)OP(=O)(O)O)[C@@H](O)[C@H]2O)c(=O)[nH]1,,"binding, equilibrium dialysis LC-MS",,"5 µM, thermostabilized A2AR-BRIL construct","relative to: no-protein control, direction not given",z-scored log2 fold change,-5.6
O=C(Nc1cnn2ccc(N3CCC[C@@H]3c3cc(F)ccc3F)nc12)N1CC[C@H](O)C1,NLRP3 inflammasome (mouse),,mouse BMDM,10 µM,,inhibition,4.75%
Nc1c(O)cccc1C(=O)O,,"binding, equilibrium dialysis LC-MS",,"5 µM, thermostabilized A2AR-BRIL construct","relative to: no-protein control, direction not given",z-scored log2 fold change,0.499
Oc1ccccc1-c1n[nH]cc1-c1ccnc2ccccc12,orf19.6492 Candida albicans,"kinase binding, MIB/MS competition",Candida albicans lysate,1 µM,relative to: DMSO,log2 fold change,0.07
C[C@]12O[C@H](C[C@]1(O)CO)n1c3ccccc3c3c4c(c5c6ccccc6n2c5c31)CNC4=O,iCell Cardiomyocytes (hiPSC-derived),cellular impedance,,"concentration not given, 24 h",relative to: control,cell index,90.3%
Cc1ccc(C(=O)Nc2ccc(CN3CCN(C)CC3)c(C(F)(F)F)c2)cc1C#Cc1cnc2cccnn12,NLRP3 inflammasome (mouse),,mouse BMDM,10 µM,,inhibition,83.4%
C=C(OP(=O)(O)O)C(=O)O,,"binding, equilibrium dialysis LC-MS",,"5 µM, thermostabilized A2AR-BRIL construct","relative to: no-protein control, direction not given",z-scored log2 fold change,0.0257
Cc1cc(NC(=O)CCC(=O)O)nn1C,"Ubiquitin carboxyl-terminal hydrolase 39, ZnF-UBD domain (Homo sapiens, UniProt Q53GS9)",,,,,pKd,< 3.00
CC(C)NCC(O)c1ccc(O)c(O)c1 (centres unmarked),,,"ventricular cardiomyocytes, C57BL/6 mouse","dose not given, 0.68 s",,sarcomere length,1.72 µm
OC(CCN1CCCCC1)(c1ccccc1)C1CC2C=CC1C2 (centres unmarked),,resting-state EEG,healthy elderly humans,"oral, 4 mg, eyes closed, LS mean",,"EEG theta power, O1 Pz",7.4 µV²
O=C(O)CNC(=O)Cc1ccc(O)cc1,,"binding, equilibrium dialysis LC-MS",,"5 µM, thermostabilized A2AR-BRIL construct","relative to: no-protein control, direction not given",z-scored log2 fold change,1.41
NC(=O)[C@H]1CCCN1C(=O)CCC(=O)O,"Ubiquitin carboxyl-terminal hydrolase 49, ZnF-UBD domain (USP49, Homo sapiens, UniProt Q70CQ1)",,,,,pKd,3.40
Cn1cc(-c2ccc(-c3cncc(Cl)c3N3CCC4(CCNC4=O)CC3)cc2)cn1,COLO 205,"gene expression, microarray, refers to: PLEKHG2 mRNA",,"concentration not given, 6 h",relative to: untreated cells,log2 fold change,1.16
CCCS(=O)(=O)Nc1ccc(F)c(C(=O)c2c[nH]c3ncc(Cl)cc23)c1F,iCell Cardiomyocytes (hiPSC-derived),xCELLigence Cardio impedance,,"concentration not given, 2 h",relative to: control,beat rate,104%
C[C@H]1Oc2cc(cnc2N)-c2c(nn(C)c2C#N)CN(C)C(=O)c2ccc(F)cc21,NLRP3 inflammasome (mouse),,mouse BMDM,10 µM,,inhibition,-17.7%
NC(=O)c1cnc2[nH]ccc2c1N[C@@H]1[C@@H]2CC3C[C@H]1C[C@@](O)(C3)C2,,"flow cytometry, refers to: CD8+ central memory T cells","Japanese healthy subjects, peripheral blood","oral, 10 mg twice daily, day 7",,change from baseline,-0.28%
N#CC[C@H](C1CCCC1)n1cc(-c2ncnc3[nH]ccc23)cn1,iCell Cardiomyocytes (hiPSC-derived),cellular impedance,,"concentration not given, 24 h",relative to: control,cell index,99.9%
Cc1cc2c(F)c(Oc3ncnn4cc(OC[C@@H](C)O)c(C)c34)ccc2[nH]1,NLRP3 inflammasome (mouse),,mouse BMDM,10 µM,,inhibition,51.3%
Nc1nc2c(ncn2[C@H]2C[C@H](O)[C@@H](COP(=O)(O)OP(=O)(O)OP(=O)(O)O)O2)c(=O)[nH]1,,"binding, equilibrium dialysis LC-MS",,"5 µM, thermostabilized A2AR-BRIL construct","relative to: no-protein control, direction not given",z-scored log2 fold change,-0.441
CO[C@@H]1[C@H](N(C)C(=O)c2ccccc2)C[C@H]2O[C@]1(C)n1c3ccccc3c3c4c(c5c6ccccc6n2c5c31)C(=O)NC4,iCell Cardiomyocytes (hiPSC-derived),cellular impedance,,"concentration not given, 24 h",relative to: control,cell index,83.3%
CC#CC(=O)N1CCC[C@H]1c1nc(-c2ccc(C(=O)Nc3ccccn3)cc2)c2c(N)nccn12,NLRP3 inflammasome (mouse),,mouse BMDM,10 µM,,inhibition,-26.2%
NCCCCN=C(N)N,,"binding, equilibrium dialysis LC-MS",,"5 µM, thermostabilized A2AR-BRIL construct","relative to: no-protein control, direction not given",z-scored log2 fold change,0.426
O=C(Nc1ccc([N+](=O)[O-])cc1Cl)c1cc(Cl)ccc1O,human alphaherpesvirus 1,,"K26 GFP, 3D skin equivalent, submerged",,relative to: CC50 over IC50,selectivity index,> 27.8
